Measurements from different studies.
Compare with care: the assays were run in different laboratories. Values joined by “and” are separate records of one study, mostly repeats; a detail may differ.
SCTR: Secretin receptor (SCTR, Homo sapiens, UniProt P47872)
UniProt P47872, sequence (whole entry, looked up): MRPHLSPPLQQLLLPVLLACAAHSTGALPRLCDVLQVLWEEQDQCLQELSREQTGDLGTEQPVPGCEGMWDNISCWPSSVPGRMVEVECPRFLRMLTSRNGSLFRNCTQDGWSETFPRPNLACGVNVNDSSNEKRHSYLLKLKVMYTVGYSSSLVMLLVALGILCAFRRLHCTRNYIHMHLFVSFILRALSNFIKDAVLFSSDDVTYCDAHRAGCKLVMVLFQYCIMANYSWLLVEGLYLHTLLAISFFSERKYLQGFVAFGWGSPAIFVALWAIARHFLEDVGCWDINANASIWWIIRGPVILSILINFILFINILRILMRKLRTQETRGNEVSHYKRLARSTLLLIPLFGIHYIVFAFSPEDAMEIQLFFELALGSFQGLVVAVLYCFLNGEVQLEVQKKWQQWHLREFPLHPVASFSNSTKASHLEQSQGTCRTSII
DRD3: D(3) dopamine receptor (DRD3, Homo sapiens, UniProt P35462)
UniProt P35462, sequence (whole entry, looked up): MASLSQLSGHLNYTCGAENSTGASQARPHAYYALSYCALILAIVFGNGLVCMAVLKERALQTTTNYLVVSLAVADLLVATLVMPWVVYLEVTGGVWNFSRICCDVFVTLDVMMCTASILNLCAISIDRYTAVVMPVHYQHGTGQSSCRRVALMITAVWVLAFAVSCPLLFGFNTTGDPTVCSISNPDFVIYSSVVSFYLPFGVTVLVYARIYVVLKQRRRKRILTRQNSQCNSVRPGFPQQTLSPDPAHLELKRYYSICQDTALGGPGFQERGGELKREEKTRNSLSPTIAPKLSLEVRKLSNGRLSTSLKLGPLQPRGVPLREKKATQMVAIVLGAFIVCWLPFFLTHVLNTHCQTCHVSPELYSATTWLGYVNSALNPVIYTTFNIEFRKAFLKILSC
ADRA2B: Alpha-2B adrenergic receptor (ADRA2B, Homo sapiens, UniProt P18089)
UniProt P18089, sequence (whole entry, looked up): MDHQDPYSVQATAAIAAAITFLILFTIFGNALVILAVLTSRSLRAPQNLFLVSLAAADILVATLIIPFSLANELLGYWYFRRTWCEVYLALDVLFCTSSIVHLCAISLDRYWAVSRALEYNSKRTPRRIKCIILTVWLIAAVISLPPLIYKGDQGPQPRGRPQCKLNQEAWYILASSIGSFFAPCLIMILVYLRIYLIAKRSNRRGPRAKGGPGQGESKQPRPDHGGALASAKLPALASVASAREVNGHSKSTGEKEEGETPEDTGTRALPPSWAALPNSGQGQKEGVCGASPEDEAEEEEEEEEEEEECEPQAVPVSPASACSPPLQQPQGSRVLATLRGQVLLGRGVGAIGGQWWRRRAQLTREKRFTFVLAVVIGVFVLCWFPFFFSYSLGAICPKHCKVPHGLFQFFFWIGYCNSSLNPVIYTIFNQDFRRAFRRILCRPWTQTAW
HDAC6: Protein deacetylase HDAC6 (HDAC6, Homo sapiens, UniProt Q9UBN7)
UniProt Q9UBN7, sequence (whole entry, looked up): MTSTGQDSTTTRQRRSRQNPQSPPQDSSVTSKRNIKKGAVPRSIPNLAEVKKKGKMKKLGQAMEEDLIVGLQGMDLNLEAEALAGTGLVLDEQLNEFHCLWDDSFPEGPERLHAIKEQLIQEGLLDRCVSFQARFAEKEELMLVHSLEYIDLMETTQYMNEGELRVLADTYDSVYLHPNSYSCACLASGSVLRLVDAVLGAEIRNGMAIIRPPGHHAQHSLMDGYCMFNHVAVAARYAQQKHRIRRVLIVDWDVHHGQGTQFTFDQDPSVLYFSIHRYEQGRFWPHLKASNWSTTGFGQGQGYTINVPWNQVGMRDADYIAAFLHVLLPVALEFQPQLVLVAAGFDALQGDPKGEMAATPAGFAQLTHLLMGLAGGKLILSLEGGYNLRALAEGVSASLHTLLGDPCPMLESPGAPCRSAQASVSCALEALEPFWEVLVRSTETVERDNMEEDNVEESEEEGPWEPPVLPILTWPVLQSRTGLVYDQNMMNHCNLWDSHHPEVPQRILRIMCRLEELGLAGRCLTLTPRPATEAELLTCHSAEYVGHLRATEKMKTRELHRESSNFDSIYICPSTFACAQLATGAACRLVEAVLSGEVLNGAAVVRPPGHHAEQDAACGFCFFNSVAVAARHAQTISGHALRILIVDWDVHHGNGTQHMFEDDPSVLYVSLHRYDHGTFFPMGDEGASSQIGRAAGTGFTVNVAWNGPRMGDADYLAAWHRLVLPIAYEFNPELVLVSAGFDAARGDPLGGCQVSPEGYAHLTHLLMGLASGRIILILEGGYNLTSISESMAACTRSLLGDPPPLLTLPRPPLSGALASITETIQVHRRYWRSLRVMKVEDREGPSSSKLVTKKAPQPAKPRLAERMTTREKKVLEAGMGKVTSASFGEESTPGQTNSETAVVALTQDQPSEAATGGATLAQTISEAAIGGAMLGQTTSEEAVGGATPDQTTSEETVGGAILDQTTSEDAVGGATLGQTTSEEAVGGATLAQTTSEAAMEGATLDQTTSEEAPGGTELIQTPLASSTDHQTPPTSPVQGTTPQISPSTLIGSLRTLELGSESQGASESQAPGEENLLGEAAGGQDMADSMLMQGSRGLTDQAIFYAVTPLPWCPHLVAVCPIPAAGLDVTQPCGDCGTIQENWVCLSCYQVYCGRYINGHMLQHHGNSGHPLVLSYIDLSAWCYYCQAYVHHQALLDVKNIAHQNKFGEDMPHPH
ADRA2C: Alpha-2C adrenergic receptor (ADRA2C, Homo sapiens, UniProt P18825)
UniProt P18825, sequence (whole entry, looked up): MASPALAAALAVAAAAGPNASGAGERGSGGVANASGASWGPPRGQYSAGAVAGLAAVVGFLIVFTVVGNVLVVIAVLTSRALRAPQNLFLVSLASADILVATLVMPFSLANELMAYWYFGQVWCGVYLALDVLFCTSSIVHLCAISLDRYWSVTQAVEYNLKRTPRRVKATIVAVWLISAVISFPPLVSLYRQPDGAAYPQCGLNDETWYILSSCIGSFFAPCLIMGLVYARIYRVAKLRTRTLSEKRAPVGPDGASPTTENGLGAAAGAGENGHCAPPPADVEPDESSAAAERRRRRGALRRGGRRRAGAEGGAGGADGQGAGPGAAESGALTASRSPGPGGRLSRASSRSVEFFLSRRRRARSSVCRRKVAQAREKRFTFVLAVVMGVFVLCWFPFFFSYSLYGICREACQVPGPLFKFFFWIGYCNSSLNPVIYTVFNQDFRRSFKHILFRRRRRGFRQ
CES2: Cocaine esterase (CES2, Homo sapiens, UniProt O00748)
UniProt O00748, sequence (whole entry, looked up): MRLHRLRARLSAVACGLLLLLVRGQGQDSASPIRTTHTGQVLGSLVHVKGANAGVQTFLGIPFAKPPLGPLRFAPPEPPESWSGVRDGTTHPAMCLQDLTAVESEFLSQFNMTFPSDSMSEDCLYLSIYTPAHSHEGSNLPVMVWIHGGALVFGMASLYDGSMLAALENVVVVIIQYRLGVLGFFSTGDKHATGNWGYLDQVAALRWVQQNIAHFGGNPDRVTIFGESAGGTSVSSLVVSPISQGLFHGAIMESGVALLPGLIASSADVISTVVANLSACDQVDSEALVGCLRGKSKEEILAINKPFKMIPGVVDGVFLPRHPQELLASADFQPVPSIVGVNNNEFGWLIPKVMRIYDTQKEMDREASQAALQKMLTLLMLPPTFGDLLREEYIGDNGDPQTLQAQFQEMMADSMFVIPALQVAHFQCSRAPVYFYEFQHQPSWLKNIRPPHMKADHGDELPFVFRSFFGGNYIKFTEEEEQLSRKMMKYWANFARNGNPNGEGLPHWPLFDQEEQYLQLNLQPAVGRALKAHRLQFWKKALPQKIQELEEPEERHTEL
HDAC8: Histone deacetylase 8 (HDAC8, Homo sapiens, UniProt Q9BY41)
UniProt Q9BY41, sequence (whole entry, looked up): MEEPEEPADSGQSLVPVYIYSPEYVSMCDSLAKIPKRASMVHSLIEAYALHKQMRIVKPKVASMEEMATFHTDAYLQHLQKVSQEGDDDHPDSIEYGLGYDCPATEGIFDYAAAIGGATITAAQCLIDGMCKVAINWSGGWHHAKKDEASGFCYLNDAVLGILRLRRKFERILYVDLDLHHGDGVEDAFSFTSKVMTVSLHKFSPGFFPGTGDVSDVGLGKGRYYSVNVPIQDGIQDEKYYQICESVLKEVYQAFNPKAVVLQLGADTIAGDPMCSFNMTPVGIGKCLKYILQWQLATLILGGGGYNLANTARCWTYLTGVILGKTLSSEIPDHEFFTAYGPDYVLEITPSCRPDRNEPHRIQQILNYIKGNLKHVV
UniProt P10721, sequence (whole entry, unmodified, looked up): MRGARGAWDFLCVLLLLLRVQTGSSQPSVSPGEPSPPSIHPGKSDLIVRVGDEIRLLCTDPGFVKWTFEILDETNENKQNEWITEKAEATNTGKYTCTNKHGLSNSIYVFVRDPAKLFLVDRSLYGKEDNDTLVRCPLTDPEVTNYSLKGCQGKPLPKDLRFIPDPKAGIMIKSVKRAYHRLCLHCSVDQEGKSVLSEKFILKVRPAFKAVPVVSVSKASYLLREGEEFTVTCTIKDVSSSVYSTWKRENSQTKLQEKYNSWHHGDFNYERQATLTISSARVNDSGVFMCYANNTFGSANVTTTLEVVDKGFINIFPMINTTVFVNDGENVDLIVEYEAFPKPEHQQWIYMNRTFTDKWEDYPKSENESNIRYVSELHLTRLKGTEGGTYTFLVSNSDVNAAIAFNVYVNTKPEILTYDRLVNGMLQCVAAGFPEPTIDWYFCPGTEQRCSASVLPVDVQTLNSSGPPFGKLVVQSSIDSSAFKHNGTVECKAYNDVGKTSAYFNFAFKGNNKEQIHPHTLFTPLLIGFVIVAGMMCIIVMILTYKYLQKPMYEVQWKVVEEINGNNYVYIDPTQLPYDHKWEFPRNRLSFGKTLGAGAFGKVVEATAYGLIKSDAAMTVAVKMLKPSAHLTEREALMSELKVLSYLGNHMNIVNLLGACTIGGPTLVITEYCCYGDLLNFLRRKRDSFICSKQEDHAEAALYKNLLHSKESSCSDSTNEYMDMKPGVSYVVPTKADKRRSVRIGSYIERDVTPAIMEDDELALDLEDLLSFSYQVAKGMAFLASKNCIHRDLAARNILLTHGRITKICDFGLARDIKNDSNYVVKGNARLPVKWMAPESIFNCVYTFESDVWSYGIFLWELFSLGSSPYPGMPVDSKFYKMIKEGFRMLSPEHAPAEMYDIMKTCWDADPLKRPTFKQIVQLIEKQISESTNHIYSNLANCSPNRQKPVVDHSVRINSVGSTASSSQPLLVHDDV

Structure (SMILES) | tested on | assay | setting | measurement | value
CCOc1ccccc1C(=O)CC(SCc1ccc(Cl)cc1)C(=O)O (stereo not drawn) | PLCD1 (Homo sapiens, UniProt P51178) | ligand displacement, FP |  | Ki | > 1000 µM
CC1=NN(/C(=N\c2ccc(Cl)cc2)Nc2nnc(C)s2)C(c2ccc(C)cc2)S1 (stereo not drawn) | SCTR | cAMP, agonist, TR-FRET |  | EC50 | 3.7 µM
Cc1[nH]c(C)c(S(=O)(=O)Nc2ccc(C(=O)C3CC3)c(Cl)c2)c1C(=O)N1CCC(F)(F)C1 | DRD3 | G protein activation, antagonist, BRET |  | IC50 | 6.6 µM
Cc1ccc(N(O)N=Nc2ccc(S(=O)(=O)Nc3onc(C)c3C)cc2)cc1 |  | ABTS scavenging | 240 µg/mL | inhibition | 98.1%
Cc1cc(Oc2ncccc2CN2CCN(c3cccc(F)c3)CC2)ccc1-c1c(C)c(=O)[nH]c(=O)n1C | ADRA2B | ligand displacement, radioligand |  | Ki | 0.0607 µM
Cc1[nH]c(C)c(S(=O)(=O)Nc2ccc(Cl)c(C(F)(F)F)c2)c1C(=O)N1CCC(F)(F)C1 | DRD3 | β-arrestin recruitment, antagonist |  | IC50 | 27 µM
O=C(NO)c1cccc(OS(=O)(=O)Oc2ccc(-c3cccc(C(F)(F)F)c3)cc2)c1 | HDAC6 | enzyme activity, inhibitor, fluorescence |  | Ki | 1.38 µM
Cc1[nH]c(C)c(S(=O)(=O)Nc2ccc(C(F)(F)F)c(Br)c2)c1C(=O)N1CCCC1 | DRD3 | G protein activation, antagonist, BRET |  | IC50 | 3.3 µM
Cc1cc(Oc2ncccc2CN2CCN(c3ccc(F)c(F)c3)CC2)ccc1-c1c(C)c(=O)[nH]c(=O)n1C | ADRA2C | ligand displacement, radioligand |  | Ki | 0.0896 µM
COc1cc2c(cc1OC)C(=O)/C(=C/c1cccs1)C2 | CES2 | enzyme activity, inhibitor, fluorescence | with preincubation | IC50 | 18.8 µM
Cc1ccc(C2=CCC(C)(C)c3cc(C(/C=C/c4ccc(C(=O)O)cc4)=N/O)ccc32)cc1 | RARB (Homo sapiens, UniProt P10826) | reporter gene, antagonist, luciferase |  | EC50 | > 5 µM
Cc1cc(Oc2ncccc2CN2CCN(Cc3ccccc3Cl)CC2)ccc1-c1c(C)c(=O)[nH]c(=O)n1C | ADRA2C | ligand displacement, radioligand |  | Ki | 0.0254 µM
CCN(C)C(=O)c1c(C)[nH]c(C)c1S(=O)(=O)Nc1ccc(C(F)(F)F)c(Cl)c1 | DRD3 | β-arrestin recruitment, antagonist |  | IC50 | 13.3 µM
CC1=C(O)C(=O)OC1C (stereo not drawn) | OR8D1 (Homo sapiens, UniProt Q8WZ84, K295A) | cAMP, agonist, luciferase |  | EC50 | 3.49 µM
Cc1cc(Oc2ncccc2CN2CCN(CCc3ccccc3)CC2)ccc1-c1c(C)c(=O)[nH]c(=O)n1C | ADRA2B | ligand displacement, radioligand |  | Ki | 2.3 µM
Cc1cc([C@@H](C)Nc2ccccc2C(=O)O)c2nc(N3CCC(F)(F)CC3)c(C#N)c(=O)n2c1 | AKT1 (Homo sapiens, UniProt P31749) | binding, competition with immobilised ligand | 10 µM | remaining binding | 100%
CC1=NN(/C(=N/c2nnc(C)s2)Nc2ccc(C)c(C)c2)C(c2cc(F)c(F)c(F)c2F)S1 (stereo not drawn) | SCTR | cAMP, agonist, TR-FRET |  | EC50 | 0.6 µM
Cc1cc(Oc2ncccc2CN2CCN(c3ccccc3O)CC2)ccc1-c1c(C)c(=O)[nH]c(=O)n1C | ADRA2C | ligand displacement, radioligand |  | Ki | ~0.011 µM and 0.0106 µM
CN(C)c1ncnc2c1ncn2[C@@H]1O[C@H](CO)[C@@H](O)[C@H]1O | ADORA3 (Homo sapiens, UniProt P0DMS8, L264M) | G protein activation, agonist |  | EC50 | 11 µM
Cc1cc(C)c(OS(=O)(=O)Oc2cccc(C(=O)NO)c2)c(C)c1 | HDAC6 | enzyme activity, inhibitor, fluorescence |  | Ki | 0.248 µM
COc1cccc(C(=O)CC(SCc2ccc(Cl)cc2)C(=O)O)c1 (stereo not drawn) | OSBP (Homo sapiens, UniProt P22059) | ligand displacement, FP |  | Ki | 100 µM
Cc1[nH]c(C)c(S(=O)(=O)Nc2ccc(C(F)(F)F)c(Cl)c2)c1C(=O)N1C[C@@H](F)[C@H](F)C1 (relative stereo) | DRD3 | β-arrestin recruitment, antagonist |  | IC50 | 2.9 µM
Cc1cnc(-c2ccc(-c3ccc(NC(=O)Nc4c(F)cc(F)cc4F)cc3F)c3c2C(=O)NC3)[nH]1 | MAP2K3 (Homo sapiens, UniProt P46734) | binding, competition with immobilised ligand |  | Kd | 0.0058 µM
CC(C)(C)c1ccc(OS(=O)(=O)Oc2cc(F)cc(C(=O)NO)c2)cc1 | HDAC6 | enzyme activity, inhibitor, fluorescence |  | Ki | 0.933 µM

Structure (SMILES) | tested on | assay | setting | measurement | value
CCCCC(=O)Nc1ccc(-c2ccc3ncn(CCC)c(=O)c3c2)cn1 | KIT (Homo sapiens, UniProt P10721, D816V) | binding, competition with immobilised ligand | 0.5 µM | remaining binding | 100%
O=C(NO)c1cncc(OS(=O)(=O)Oc2ccc(C(F)(F)F)cc2)c1 | HDAC8 | enzyme activity, inhibitor, fluorescence |  | Ki | 0.788 µM
N#C[C@@]12C[C@@H]1[C@@H](n1cnc3c(N[C@H](C4CCC4)C4CC4)nc(I)nc31)[C@H](O)[C@@H]2O | HTR2A (Homo sapiens, UniProt P28223) | calcium signal, antagonist |  | Kb | > 10 µM
COc1cc2ncnc(Nc3ccc(Oc4ccccc4)cc3)c2cc1OC | SMUG1 (Homo sapiens, UniProt Q53HV7) | enzyme activity, activator, fluorescence |  | AC50 | 24 µM
CC(=NNC(=O)c1ccccc1O)c1ccc(Nc2nnc(-c3ccc(Cl)cc3)c3ccccc23)cc1 | MCF7 | cell growth or viability, MTT | 0.625 µM, 24 h | viability | 94.6%
Cc1cc(OS(=O)(=O)Oc2ccc(Oc3ccccc3)cc2)cc(C(=O)NO)c1 | HDAC8 | enzyme activity, inhibitor, fluorescence |  | Ki | 3.08 µM
Cc1cc(Oc2ncccc2CN2CCN(c3ccc(F)cc3F)CC2)ccc1-c1c(C)c(=O)[nH]c(=O)n1C | ADRA2C | ligand displacement, radioligand |  | Ki | 0.0894 µM
COc1ccc(OS(=O)(=O)Oc2cccc(C(=O)NO)c2)cc1OC | HDAC6 | enzyme activity, inhibitor, fluorescence |  | Ki | 0.028 µM
CC(=NNC(=O)c1cccnc1)c1ccc(Nc2nnc(-c3ccc(Cl)cc3)c3ccccc23)cc1 | MCF7 | cell growth or viability, MTT | 1.25 µM, 24 h | viability | 15.4%
CC#CCn1c(N2CCC[C@@H](N)C2)nc2c1c(=O)n(Cc1nc(C)c3ccccc3n1)c(=O)n2C | CES2 | enzyme activity, inhibitor, fluorescence | with preincubation | IC50 | > 100 µM
COc1ccc(N2CCN(Cc3cccnc3Oc3ccc(-c4c(C)c(=O)[nH]c(=O)n4C)c(C)c3)CC2)cc1 | ADRA2B | ligand displacement, radioligand |  | Ki | 0.316 µM
Cc1cc(C(C)(C)C)ccc1OS(=O)(=O)Oc1cc(F)cc(C(=O)NO)c1 | HDAC8 | enzyme activity, inhibitor, fluorescence |  | Ki | 6.75 µM
Cc1[nH]c(C)c(S(=O)(=O)Nc2ccc(C(F)(F)F)c(Cl)c2Cl)c1C(=O)N1CCC(F)(F)C1 | DRD3 | G protein activation, antagonist, BRET |  | IC50 | 0.045 µM
COc1cc(-c2cncc3c2CN(C)Cc2cc(N4CCNCC4)ccc2-3)cc(OC)c1OC | PNCK (Homo sapiens, UniProt Q6P2M8) | enzyme activity, inhibitor | 1 µM | remaining activity | 106%
CCN(CC)S(=O)(=O)c1c(C)[nH]c(C)c1C(=O)Nc1ccc(C(F)(F)F)c(Cl)c1 | DRD3 | G protein activation, antagonist, BRET |  | IC50 | > 10 µM
CCCN(O)N=Nc1ccc(S(=O)(=O)Nc2cc(C)on2)cc1 |  | ABTS scavenging | 300 µg/mL | inhibition | 61.4%
CNc1ncc2c(/C=C/C(=O)N3CCC(OC)CC3)nn(Cc3cccc(C(F)(F)F)c3)c2n1 | Cyclin-dependent kinase 20, with cyclin T1 (CDK20, Homo sapiens, UniProt Q8IZL9) | enzyme activity, inhibitor, radiometric | 1 µM | remaining activity | 104%
Cc1ccc(NS(=O)(=O)c2c(C)[nH]c(C)c2C(=O)N2CCC2)cc1Cl | DRD3 | G protein activation, antagonist, BRET |  | IC50 | 13 µM
CC1=NN(/C(=N/c2nnc(C)s2)Nc2ccc(C)c(C)c2)C(c2ccc(C(C)(C)C)cc2)S1 (stereo not drawn) | SCTR | cAMP, agonist, TR-FRET |  | EC50 | 0.4 µM
C=CC(=O)N1CCC(COCC(=O)N2CCN(c3nc(-c4cnc(N)nc4C(F)F)nc(N4CCOC[C@@H]4C)n3)CC2)CC1 | LRRK2 (Homo sapiens, UniProt Q5S007) | binding, competition with immobilised ligand | 1 µM | remaining binding | 89%
COc1ccccc1N1CCN(Cc2cccnc2Oc2ccc(-c3c(C)c(=O)[nH]c(=O)n3C)c(C)c2)CC1 | ADRA1A (Homo sapiens, UniProt P35348) | ligand displacement, radioligand |  | Ki | 0.251 µM
O=C(NO)c1cc(F)cc(OS(=O)(=O)Oc2ccccc2)c1 | HDAC8 | enzyme activity, inhibitor, fluorescence |  | Ki | 0.698 µM
CC1=NN(/C(=N/c2nnc(C)s2)Nc2ccc(C)c(C)c2)C(c2ccc(F)c(C(F)(F)F)c2)S1 (stereo not drawn) | SCTR | cAMP, agonist, TR-FRET |  | EC50 | 0.7 µM
C1=C/COCc2cc(ccc2OCCN2CCCC2)Nc2nccc(n2)-c2cccc(c2)COC/1 | KIT (Homo sapiens, UniProt P10721) | binding | 0.1 µM | remaining binding | 7%

Excerpt of the above:
Structure (SMILES) | tested on | assay | setting | measurement | value
Cc1[nH]c(C)c(S(=O)(=O)Nc2ccc(C(F)(F)F)c(Cl)c2Cl)c1C(=O)N1CCC(F)(F)C1 | DRD3 | G protein activation, antagonist, BRET |  | IC50 | 0.045 µM
CC#CCn1c(N2CCC[C@@H](N)C2)nc2c1c(=O)n(Cc1nc(C)c3ccccc3n1)c(=O)n2C | CES2 | enzyme activity, inhibitor, fluorescence | with preincubation | IC50 | > 100 µM
COc1ccc(OS(=O)(=O)Oc2cccc(C(=O)NO)c2)cc1OC | HDAC6 | enzyme activity, inhibitor, fluorescence |  | Ki | 0.028 µM
Cc1cc(C(C)(C)C)ccc1OS(=O)(=O)Oc1cc(F)cc(C(=O)NO)c1 | HDAC8 | enzyme activity, inhibitor, fluorescence |  | Ki | 6.75 µM
COc1cc2c(cc1OC)C(=O)/C(=C/c1cccs1)C2 | CES2 | enzyme activity, inhibitor, fluorescence | with preincubation | IC50 | 18.8 µM
Cc1cnc(-c2ccc(-c3ccc(NC(=O)Nc4c(F)cc(F)cc4F)cc3F)c3c2C(=O)NC3)[nH]1 | MAP2K3 (Homo sapiens, UniProt P46734) | binding, competition with immobilised ligand |  | Kd | 0.0058 µM
CC1=NN(/C(=N/c2nnc(C)s2)Nc2ccc(C)c(C)c2)C(c2cc(F)c(F)c(F)c2F)S1 (stereo not drawn) | SCTR | cAMP, agonist, TR-FRET |  | EC50 | 0.6 µM
CC1=C(O)C(=O)OC1C (stereo not drawn) | OR8D1 (Homo sapiens, UniProt Q8WZ84, K295A) | cAMP, agonist, luciferase |  | EC50 | 3.49 µM
